Results from different studies.
Values joined by “and” are separate records of one study, mostly repeats; a detail may differ. ± gives the spread as reported.
Chain of UniProt Q9UHI6 (whole entry, looked up): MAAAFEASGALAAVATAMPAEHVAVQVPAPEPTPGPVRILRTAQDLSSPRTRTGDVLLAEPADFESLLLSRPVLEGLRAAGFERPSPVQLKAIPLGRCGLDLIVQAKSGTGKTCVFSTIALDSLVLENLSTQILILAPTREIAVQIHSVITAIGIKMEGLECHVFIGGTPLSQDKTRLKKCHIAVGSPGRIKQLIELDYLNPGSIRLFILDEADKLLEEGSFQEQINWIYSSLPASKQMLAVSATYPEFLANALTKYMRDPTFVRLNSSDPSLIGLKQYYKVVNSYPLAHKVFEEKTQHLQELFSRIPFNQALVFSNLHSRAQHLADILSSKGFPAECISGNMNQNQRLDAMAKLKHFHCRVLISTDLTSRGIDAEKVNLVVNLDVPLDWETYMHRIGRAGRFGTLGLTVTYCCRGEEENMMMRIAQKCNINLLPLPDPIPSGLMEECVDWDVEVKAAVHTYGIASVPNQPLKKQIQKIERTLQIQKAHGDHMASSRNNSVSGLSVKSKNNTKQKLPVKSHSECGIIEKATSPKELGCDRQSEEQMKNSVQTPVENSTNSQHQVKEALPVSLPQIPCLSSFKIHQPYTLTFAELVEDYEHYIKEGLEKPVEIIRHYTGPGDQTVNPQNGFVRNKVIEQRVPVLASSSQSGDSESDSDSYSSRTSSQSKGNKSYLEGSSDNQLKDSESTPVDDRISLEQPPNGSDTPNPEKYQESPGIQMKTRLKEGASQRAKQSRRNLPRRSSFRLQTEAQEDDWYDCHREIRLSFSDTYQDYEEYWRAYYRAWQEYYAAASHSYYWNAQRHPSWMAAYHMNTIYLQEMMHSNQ

Compound | target or system | assay | system | conditions | how to read | endpoint | value
CC(=O)c1c(C)c2cnc(Nc3ccc(C4CCN(CCS(C)(=O)=O)CC4)cn3)nc2n(C2CCCC2)c1=O | – | – | human, plasma | oral, 25 mg once daily, day 21, multiple doses | – | AUC(0-inf) | 397 ng·h/mL
O=C(O)CNCP(=O)(O)O | – | ultrafiltration | cow milk whey | 20 nM nominal in whole milk | – | final permeate concentration | 20.2 nM
COc1cc(C2C3=C(COC3=O)N(CCO)c3cc4c(cc32)CCC4)cc(OC)c1OC (centres unmarked) | – | – | female C57BL/6 mice | intraperitoneal, 100 mg/kg, 72 h, single dose, mean | – | body weight | 23 g
COc1cc2c(Oc3ccc4[nH]c(C)cc4c3F)ccnc2cc1OCC1(N)CC1 | – | – | paediatric refractory sarcoma patients | 8 mg | – | Myalgia incidence | 50%
NCCCC[C@@H]1NC(=O)[C@@H](Cc2c[nH]c3ccccc23)NC(=O)[C@H](c2ccccc2)NC(=O)[C@@H]2C[C@@H](OC(=O)NCCN)CN2C(=O)[C@H](Cc2ccccc2)NC(=O)[C@H](Cc2ccc(OCc3ccccc3)cc2)NC1=O | – | – | healthy volunteers | subcutaneous, 1950 µg twice daily, day 5, 4.00 h | – | QTcI change from baseline | 11.3 ms
COc1ccc([C@@H]2CC(=O)c3c(O)cc(O)cc3O2)cc1O | – | – | male Sprague-Dawley rat, obese | oral, 100 mg/kg of neohesperidin, 12 to 24 h | – | faecal excreted amount | 14500 ± 4630 ng
COc1ncnn2ccc(-c3cnc4nc(C)n(Cc5nnc([C@@H](C)F)o5)c4c3)c12 | – | – | human | oral, dose not given, grade 4 | – | patients with diarrhea | 0%
O=S(=O)(Nc1ccccc1)c1ccc(NC(=S)Nc2ccccc2)cc1 | – | – | male mouse, blood | oral, 20 mg/kg daily, 14 days | – | chloride level | 109 mmol/L
O=C(O)CCCOc1ccc(F)cc1-c1cc(-c2ccccc2C(F)(F)F)n(-c2ccccc2)n1 | – | – | male Crl:CD(SD) rats, salivary glands | intravenous, 25 µg/kg, 14 d | – | organ weight | 0.71 ± 0.08 g
C[C@]1(CO)Cc2ncn(-c3ccc(C#N)c(Cl)c3)c2C(=O)O1 | – | – | human | 40 mg multiple doses, fasted | – | subjects with drug-related headache | 11.1%
CO[C@H]1C[C@@H]2CC[C@@H](C)[C@@](O)(O2)C(=O)C(=O)N2CCCC[C@H]2C(=O)O[C@H]([C@H](C)C[C@@H]2CC[C@@H](OC(=O)NCCOCCOCCOCCOCCOCCOCCOCCOCCC(=O)N3CCc4cc(Cn5nc(-c6ccc7oc(N)nc7c6)c6c(N)ncnc65)ccc4C3)[C@H](OC)C2)C[C@@H](O)[C@H](C)/C=C(\C)[C@@H](O)[C@@H](OC)C(=O)[C@H](C)C[C@H](C)/C=C/C=C/C=C/1C | – | – | patients with advanced solid tumours | intravenous, 8 mg weekly, any grade | – | maculopapular rash incidence | 25%
Cn1nnc2c(C(N)=O)ncn2c1=O | – | – | mice | intravenous, 125 mg/kg single dose, 7 days | – | body weight | 32 ± 1 g
C1=Cc2nc1cc1ccc([n-]1)c(C1CC1)c1nc(cc3ccc([n-]3)c2C2CC2)C=C1.CC(=O)[O-].[Mn+3] | – | LC-MS/MS | Sprague-Dawley rat, plasma | oral gavage, dose not given, 30 min, individual rat Rat2 | – | plasma concentration | 85 ng/mL
O=C(Nc1ccccc1)C1CCN(C(=O)Oc2cccnc2)CC1 | – | – | healthy women | oral, 20 mg, 7 days | – | Psychiatric disorders adverse events | 7.1%
CCN1[C@@H](C(=O)NC23CCC(C(=O)O)(CC2)CC3)[C@H](c2cccc(Cl)c2F)[C@]2(C(=O)Nc3cc(Cl)ccc32)C12CCCCC2 | – | – | patients with advanced solid tumours | oral, 200 mg | – | Thrombocytopenia incidence | 100%
CC(C)NCCCC[C@@H]1NC(=O)[C@H](Cc2ccc(O)cc2)NC(=O)[C@H](Cc2ccccc2)NC(=O)CC[C@H](C(=O)N[C@@H](CCCCNC(C)C)C(=O)N[C@@H](CCCCNC(=O)[C@H](CCC(=O)O)NC(=O)[C@H](CCC(=O)O)NC(=O)[C@H](CCC(=O)O)NC(=O)CN2CCN(CC(=O)O)CCN(CC(=O)O)CC2)C(N)=O)NC(=O)CNC(=O)[C@H](Cc2ccc3ccccc3c2)NC(=O)[C@@H](CCCNC(=N)N)NC1=O [fluorine-18 labelled] | – | PET | mouse, naive, bone | 57.5 min post-injection | – | SUV | 0.73 ± 0.09 g/mL

Compound | target or system | assay | system | conditions | how to read | endpoint | value
CN1CC[C@@H](c2c(O)cc(O)c3c(=O)cc(-c4ccc(C(F)(F)F)cc4Cl)oc23)[C@@H]1CO | – | measured: Hyperglycemia | relapsed B-cell malignancies or AML | oral, 50 mg, grade 3-4, continuous dosing | – | patients with adverse event | 0%
COc1cccc(Oc2ccccc2NC(=O)CNC(=O)c2cccc3ccccc23)c1 | – | – | esterase-deficient SCID mice, male | oral, 40 mg/kg/day, 14 days, toxicity study | – | serum potassium | 7.3 mmol/L and 8.7 mmol/L and 9.1 mmol/L
C[C@H]1CN(C(=O)CC#N)[C@]12CCN(c1ncnc3[nH]ccc13)C2 | – | – | dog male | oral, 0.6 mg/kg repeated daily, 9 months, repeated-dose toxicity study | – | Cmax at NOAEL | 270 ng/mL
Cc1ccc(C(C)Nc2nc(N3CCNCC3)nc3ccccc23)cc1 (centres unmarked) | Vero-E6 | CellTiter-Glo ATP | – | 72 h, second round 5-point | baseline: DMSO 0%, hyamine -100%, more negative, more toxic | maximum response | -3.94%
COc1ccc2nc3cc(Cl)ccc3c(Nc3cc(CN4CCCC4)c(O)c(CN4CCCC4)c3)c2n1 | – | – | mouse, blood | intraperitoneal, 14 mg/kg | – | lymphocyte count | 6.25 10⁹/L
CC[C@H](C)[C@@H]1NC(=O)[C@@H]2CCCN2C(=O)[C@H](CC(C)C)NC(=O)[C@H](CC(C)C)NC(=O)CNC(=O)[C@@H](NC(=O)[C@@H](NC(=O)[C@H](CC(=O)O)NC(=O)CNC(=O)[C@@H](NC(=O)[C@H](C)NC(=O)CNC(=O)[C@H](CCCCN)NC(=O)[C@H](CC(C)C)NC(=O)[C@H](CC(C)C)NC(=O)[C@H](CCCCN)NC(=O)CNC(=O)[C@@H](NC(=O)[C@@H](N)CC(C)C)C(C)C)C(C)C)C(C)C)CSSC[C@@H](C(=O)O)NC1=O | – | RNA-seq, measured: Hcn4 | mouse, traumatic brain injury model, frontal cortex and hippocampus | dose not given | baseline: TBI alone | log2 fold change | -1.28
C[C@H]1CN(c2n[nH]c3nc(N[C@H]4CC[C@H](NS(=O)(=O)CCC(F)(F)F)CC4)ncc23)CCO1 | DDX20 (Homo sapiens, UniProt Q9UHI6) | inhibitor, Kinobeads competition profiling | – | 0.16 µM | baseline: vehicle | relative abundance | 1.1
COc1ncccc1-c1cnn2ccc(N3CCN(C(=O)OC(C)C)CC3)nc12 | – | – | mouse nerve ligation model, plasma | oral, 10 mg/kg, 30 min after last dose, repeat dosing day 3 | – | drug concentration | 3.4 µM
Cc1ccccc1CN1C(=O)c2ccccc2Sc2ccc(C(=O)NCCCN3CCOCC3)cc21 | Vero-E6 | CellTiter-Glo ATP | – | 72 h, retest 8-point duplicates | baseline: DMSO 0%, hyamine -100%, more negative, more toxic | maximum response | -15.6%
CC(C)C[C@H](NC(=O)[C@H](CCCCN)NC(=O)OCC1c2ccccc2-c2ccccc21)C(=O)N[C@H](C(=O)N[C@@H](Cc1ccccc1)C(=O)N[C@@H](Cc1ccccc1)C(=O)N[C@@H](CCCCN)C(=O)NCC(=O)N[C@@H](Cc1ccccc1)C(=O)N[C@@H](C)C(=O)N[C@@H](Cc1c[nH]c2ccccc12)C(=O)N[C@@H](CC(N)=O)C(=O)N[C@H](C(=O)N[C@H]1CSSC[C@@H](C(=O)N[C@@H](Cc2c[nH]cn2)C(=O)N[C@@H](CCCNC(=N)N)C(=O)N[C@@H](CCCNC(=N)N)C(=O)N[C@@H](C)C(=O)N[C@@H](CC(N)=O)C(N)=O)NC(=O)[C@H](C(C)C)NC(=O)[C@H](CCCNC(=N)N)NC(=O)[C@H](C(C)C)NC(=O)CNC(=O)[C@H](CC(N)=O)NC(=O)[C@H](CCCNC(=N)N)NC(=O)[C@H](Cc2ccc(O)cc2)NC(=O)[C@H](C(C)C)NC1=O)C(C)C)C(C)C | – | HPLC | trypsin buffer | 6.00 h, 37 °C, with: trypsin 1 % w/v | – | peptide remaining | 47.5% and 43.3% and 41.9%
CC1(C)[C@H](C(=O)OCc2cccc(Oc3ccccc3)c2)[C@@H]1C=C(Cl)Cl | – | measured: CYP2B6 | human, age 6 months, recombinant human CYP2B6 | 0.1 µM | – | enzyme contribution to clearance | 2.57%
C=CC(=O)N1CCC(c2ccc(C(N)=O)c(-c3ccc(Oc4ccccc4)cc3)n2)CC1 | – | CTCAE 4.03 | patients with relapsed/refractory MCL | oral, 150 mg once daily | – | incidence of fatal serious TRAEs | 0%
COc1cccc([C@]2(C)CCN(C[C@@H](NC(=O)[C@H]3Cc4ccc(O)cc4CN3)C(C)C)C[C@@H]2C)c1 | – | – | rat | intraperitoneal, 5 mg/kg, brain over plasma AUClast | – | Kp | 2.27
CCc1ccc(CC/C=C/c2ccc3c(c2)C(=O)CC3)cc1 | – | – | Sprague-Dawley rat, female | oral, 120 mg/kg/day, 14 days | – | TC | 1.91 mM
CC[C@H](C)[C@H](NC(=O)[C@H](Cc1ccccc1)NC(=O)[C@H](CCC(=O)O)NC(=O)[C@H](CCCNC(=N)N)NC(=O)[C@H](C)NC(=O)[C@H](C)NC(=O)[C@H](CCC(N)=O)NC(=O)[C@H](CCC(=O)O)NC(=O)[C@H](CCC(=O)O)NC(=O)[C@H](CC(C)C)NC(=O)[C@H](Cc1ccc(O)cc1)NC(=O)[C@H](CO)NC(=O)[C@H](CO)NC(=O)[C@@H](NC(=O)[C@H](CC(=O)O)NC(=O)[C@H](CO)NC(=O)[C@@H](NC(=O)[C@H](Cc1ccccc1)NC(=O)[C@@H](NC(=O)CNC(=O)[C@H](CCC(=O)O)NC(=O)[C@H](C)NC(=O)CCc1c[nH]cn1)[C@@H](C)O)[C@@H](C)O)C(C)C)C(=O)N[C@@H](C)C(=O)N[C@@H](Cc1c[nH]c2ccccc12)C(=O)N[C@@H](CC(C)C)C(=O)N[C@H](C(=O)N[C@@H](CCCNC(=N)N)C(=O)NCC(=O)N[C@@H](CCCNC(=N)N)C(=O)N[C@@H](CCCCNC(=O)COCCOCCNC(=O)COCCOCCNC(=O)CC[C@H](NC(=O)CCCCCCCCCCCCCCCCC(=O)O)C(=O)O)C(=O)NCC(=O)NCC(=O)N[C@@H](CO)C(=O)N[C@@H](CCCCNc1c(NCCCCCN(O)C(=O)CCC(=O)NCCCCCN(O)C(=O)CCC(=O)NCCCCCN(O)C(C)=O)c(=O)c1=O)C(=O)O)C(C)C [zirconium-89 labelled] | – | – | rat, intestine content | intravenous, 3 nmol/kg, 4 h | – | tissue uptake | 0.27 %ID/g
CC[C@H](C)[C@@H]1NC(=O)[C@H](CCCNC(=N)N)NC(=O)C[C@@H](c2cccc3ccccc23)NC(=O)[C@@H]2CSSC[C@H](NC(=O)C[C@@H](c3cccc4ccccc34)NC(=O)[C@H](CCCNC(=N)N)NC(=O)[C@@H]3CCCN3C(=O)[C@@H]3CCCN3C1=O)C(=O)N[C@@H](Cc1ccccc1)C(=O)N1CCC[C@H]1C(=O)N[C@@H](CC(=O)O)C(=O)N[C@@H](CC(=O)O)C(=O)N[C@@H](Cc1ccccc1)C(=O)N2 | – | solubility | simulated intestinal fluid | monitored for 1 h | – | precipitation onset time | 15 min
